Experimental data pooled from the literature.
A part holds a random share of what one study measured.

Sample 1
Target: Replicase polyprotein 1ab, main protease (rep, Severe acute respiratory syndrome coronavirus 2, UniProt P0DTD1)
Read-out: enzyme activity
Action: inhibitor
Tested at: 20 µM
Setting: primary screen
`Sc1nnc(Nc2ccccc2)s1` gave an inhibition of 101%.
For `CC(=O)N[C@H](Cc1ccc2ccccc2c1)C(=O)N[C@H](Cc1ccc(Cl)cc1)C(=O)N[C@H](Cc1cccnc1)C(=O)N[C@@H](CO)C(=O)N[C@@H](Cc1ccc(O)cc1)C(=O)N[C@H](CCCNC(N)=O)C(=O)N[C@@H](CC(C)C)C(=O)N[C@@H](CCCNC(=N)N)C(=O)N1CCC[C@H]1C(=O)N[C@H](C)C(N)=O`, the inhibition was 28.3%.
With `CC(=O)O/N=C1/C(=O)N(Cc2cc(Cl)ccc2Cl)c2ccc(Cl)cc21` the inhibition was 35.4%.
`C=CC(=O)N1CCN(C(=O)CNc2cc(I)c(Cl)cc2O)CC1` has an inhibition of 39.6%.

Sample 2
Target: Histone acetyltransferase KAT6A, both winged helices, GST fusion (KAT6A, Homo sapiens, UniProt Q92794, residues 1-181)
Technique: protein binding microarray
Form: double-stranded DNA, one strand shown
Matrix: in vitro
Tested at: not given
Setting: 8-mer, flanks averaged, mean of 2 arrays, mostly near background
Relative to: not given
Direction: higher = stronger binding
Construct (chain): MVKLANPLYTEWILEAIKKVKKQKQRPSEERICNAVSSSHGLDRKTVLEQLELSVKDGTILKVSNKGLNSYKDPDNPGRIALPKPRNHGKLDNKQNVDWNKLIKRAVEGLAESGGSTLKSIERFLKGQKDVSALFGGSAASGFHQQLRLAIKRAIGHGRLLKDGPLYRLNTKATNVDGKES
With `TAGTCACA` the E-score was -0.0697.
With `ATGACACG` the E-score was 0.0374.
`CACGTGAC` has an E-score of -0.0401.
The E-score of `GCCCCAAC` is reported as -0.286.
For `AACTCATC`, the E-score was 0.0201.
The E-score of `GTAACCTA` is reported as 0.0373.
The E-score of `AACGGTCA` is reported as 0.17.
`CCAGATGG` gave an E-score of -0.145.

Sample 3
Target: Replicase polyprotein 1ab, nsp13 helicase (rep, Severe acute respiratory syndrome coronavirus 2, UniProt P0DTD1)
Action: inhibitor
Tested at: 20 µM
With `CCN1CCN(c2ccc(Nc3cc(N(C)C(=O)Nc4c(Cl)c(OC)cc(OC)c4Cl)ncn3)cc2)CC1` the inhibition was 12.6%.
`CO/N=C(\C(=O)N[C@@H]1C(=O)N2C(C(=O)O)=C(Cn3ccc(=N)n3CCO)CS[C@H]12)c1csc(N)n1` gave an inhibition of 6.07%.
The inhibition of `O=C(c1c2ccccc2cc2ccccc12)N1CCC(N2CCC[C@@H](C(=O)N3CCOCC3)C2)CC1` is reported as 6.66%.
`COc1cc(N)c(Cl)cc1C(=O)CCC1CCN(CCNS(C)(=O)=O)CC1` gave an inhibition of -1.16%.
`NC(=O)OCC(COC(N)=O)c1ccccc1` has an inhibition of 7%.
For `C[N+](C)(C)[C@@H](Cc1c[nH]c(=S)[nH]1)C(=O)[O-]`, the inhibition was 2.86%.
For `CC(C)c1noc(N2CCC(COc3ccc(-c4ccc(S(C)(=O)=O)cc4)nc3)CC2)n1`, the inhibition was 0.46%.
`CC(C)C1=C2[C@H]3CC[C@@H]4[C@@]5(C)CC[C@H](OC(=O)CC(C)(C)C(=O)O)C(C)(C)[C@@H]5CC[C@@]4(C)[C@]3(C)CC[C@@]2([C@@H](O)CN(CCN(C)C)Cc2ccc(Cl)cc2)CC1=O` has an inhibition of -1.11%.
The inhibition of `O=C(Nc1cccc(Nc2ncc(Br)c(NCCc3cnc[nH]3)n2)c1)N1CCCC1` is reported as 7.54%.
`CCn1cc(C(=O)O)c(=O)c2cc3c(cc21)OCO3` has an inhibition of 0.16%.
For `CCC(=O)O[C@]1(C(=O)CO)CC[C@H]2[C@@H]3CCC4=CC(=O)CC[C@]4(C)[C@H]3CC[C@@]21C`, the inhibition was 2.3%.
`c1cncc(CN2CCC(n3ncc4c(N5CCOCC5)nc(-c5ccc6[nH]ccc6c5)nc43)CC2)c1` has an inhibition of -0.09%.
With `Cc1oc(-c2ccccc2)nc1CCOc1ccc(CC2SC(=O)NC2=O)c2sccc12` (centres unmarked) the inhibition was -0.32%.
For `Cn1c(=O)n(-c2ccc(C(C)(C)C#N)cc2)c2c3cc(-c4cnc5ccccc5c4)ccc3ncc21`, the inhibition was -1.01%.
The inhibition of `C[C@]12CC[C@H](O)C[C@H]1CC[C@@H]1[C@@H]2CC[C@]2(C)[C@@](O)(c3ccoc3)CC[C@]12O` is reported as 7.95%.
`COc1ccc(COc2ccc(Cc3cnc(N)nc3N)cc2OC)cc1` gave an inhibition of 4.27%.
With `CC1(C)OC(=O)NC1=O` the inhibition was 8.69%.
`O=c1cc(N2CCOCC2)oc2c(-c3cccc4c3sc3ccccc34)cccc12` has an inhibition of 7.68%.
For `CCC(=O)N1CCOc2c(cc(-c3ccc(OC)c(OC)c3)cc2OC[C@H]2CCCN(C)C2)C1`, the inhibition was -4.02%.
With `CN1C(=O)N[C@H](Cc2c[nH]c3c(Cl)cccc23)C1=O` the inhibition was -1.49%.
`CN1C(=O)N(c2ccc(C#N)c(C(F)(F)F)c2)C(=O)[C@@]1(CO)c1ccccc1` gave an inhibition of 3.87%.
`Cc1cn(C[C@H](N)C(=O)O)c(=O)n(Cc2ccsc2C(=O)O)c1=O` gave an inhibition of 0.88%.
For `NC(N)=NCCC(=O)O`, the inhibition was -3.28%.
`C=CC1=C(C(=O)O)N2C(=O)[C@@H](NC(=O)/C(=N\OCC(=O)O)c3csc(N)n3)[C@H]2SC1` gave an inhibition of 2.51%.
`CC(C)[C@H](CO)Nc1nc(Nc2ccc(C(=O)O)c(Cl)c2)c2ncn(C(C)C)c2n1` gave an inhibition of 2.82%.

Sample 4
Cell line: HEK-293T/ACE2
Read-out: pseudovirus infection
Organism: VSV pseudotyped with SARS-CoV-2 spike
Tested at: 10 µM
Time: 16 h
Relative to: vehicle-treated
`Nc1c(CC(=O)O)cccc1C(=O)c1ccc(Br)cc1` has a GFP-positive cells of 77.3%.
With `Nc1nc2c(ncn2CCC(CO)CO)c(=O)[nH]1` the GFP-positive cells was 88.3%.
With `CO[C@H]1/C=C/O[C@@]2(C)Oc3c(C)c(O)c4c(O)c(c(/C=N/N5CCN(C6CCCC6)CC5)c(O)c4c3C2=O)NC(=O)/C(C)=C\C=C\[C@H](C)[C@H](O)[C@@H](C)[C@@H](O)[C@@H](C)[C@H](OC(C)=O)[C@@H]1C` the GFP-positive cells was 62.3%.

Sample 5
Target: Centromere-binding protein 1, full length, His-tagged (CBF1, Saccharomyces cerevisiae, UniProt P17106, residues 1-351)
Chain of UniProt P17106 (whole entry, looked up): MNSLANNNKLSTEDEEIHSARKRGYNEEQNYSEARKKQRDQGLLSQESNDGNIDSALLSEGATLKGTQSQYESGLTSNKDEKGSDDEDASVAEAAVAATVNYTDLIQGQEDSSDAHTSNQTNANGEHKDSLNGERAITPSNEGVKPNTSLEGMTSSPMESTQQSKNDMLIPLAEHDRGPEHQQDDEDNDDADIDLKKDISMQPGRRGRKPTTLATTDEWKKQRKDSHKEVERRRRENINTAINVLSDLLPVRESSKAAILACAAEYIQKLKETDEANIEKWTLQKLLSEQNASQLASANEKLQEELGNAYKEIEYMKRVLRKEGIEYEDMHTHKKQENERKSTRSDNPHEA
Technique: competition protein-binding microarray
Form: double-stranded DNA, one strand shown
Matrix: in vitro
Tested at: 2 µM
Setting: whole 60-bp probe, lowest competitor level
Added: Pho4 competitor, 0.05 µM
Direction: higher = stronger binding
Shared flanks, not repeated: … GTCTTGATTCGCTTGACGCTGCTG
The fluorescence intensity of `GTCTTGTCTCATTTTCACGTGCGGTTCCCCACTTCA` is reported as 552 a.u.
With `TTGCTGTCTTCTACCCACGTCATATCAGTGGTATTC` the fluorescence intensity was 68.7 a.u.
The fluorescence intensity of `CCGCACTCCTCTCCACACGGGATTCTCACCCTCTAT` is reported as 90.4 a.u.
For `CGGGGTTAAGTTTGTCCGGTGGGTGGCTTGCAGCAG`, the fluorescence intensity was 73.2 a.u.
`TCTGGGAGAGCCTGTCAGATGACGAATCAGAAGACA` has a fluorescence intensity of 136 a.u.
The fluorescence intensity of `CGTTCCTGGAACAGACGCGTGGGACATTTAGCGGGG` is reported as 87.5 a.u.
The fluorescence intensity of `AAAGCGGTAATTTGATCTGTGGGTGCAGATATCTAT` is reported as 74.3 a.u.
For `TGCTTCGTTTTTTGCCACGTGTCGGATCTGGCCTAT`, the fluorescence intensity was 1410 a.u.

Sample 6
Target: RING finger protein unkempt homolog, zinc fingers 1-6, SBP tag (UNK, Homo sapiens, UniProt Q9C0B0, residues 30-357)
Chain of UniProt Q9C0B0 (30-357, looked up): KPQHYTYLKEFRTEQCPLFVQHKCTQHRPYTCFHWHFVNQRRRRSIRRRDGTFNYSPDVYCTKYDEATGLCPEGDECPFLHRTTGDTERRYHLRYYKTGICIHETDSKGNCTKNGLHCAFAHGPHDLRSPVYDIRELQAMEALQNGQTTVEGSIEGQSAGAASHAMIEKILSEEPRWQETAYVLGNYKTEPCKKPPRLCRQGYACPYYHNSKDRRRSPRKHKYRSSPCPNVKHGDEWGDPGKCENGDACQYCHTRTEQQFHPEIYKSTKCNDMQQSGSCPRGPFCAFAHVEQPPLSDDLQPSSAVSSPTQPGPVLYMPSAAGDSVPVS
Technique: RNA Bind-n-Seq
Form: RNA
Matrix: in vitro
Tested at: 100 nM
Setting: RNA with constant flanks, vertebrate orthologous sites, ends assumed
Relative to: input RNA pool
Direction: higher = stronger binding
Shared flanks, not repeated: GGGAGUUCUACAGUCCGACGAUC … CAACAGAGGAUUGAGCAUCA
`AAAUUUUUAAAGUUUUUUAAUUUAUUUUUUUCUGUUGGGGGUAAAGUUCGCGCUACCAAAUAGUGAUCGUAACAAAUUGAUCUGUUAUGGAUGUUGCUAUAGUGACAUGCAAUUAUAUCU` gave a bound/input enrichment of 0.999 ratio.
`AGCAACUCAAGGAUUCAGAACUGGUUUUACAAAUGUCCCAAGCAGAUUUGGAACCAACGCUCGUGGUCAACCCCGACCGUAAUAAACACCGUUAUUUAUUAUACUUAAGGGUAUUGACUU` has a bound/input enrichment of 0.301 ratio.
The bound/input enrichment of `UGUACUUGGAAAAAAAUCAUCUUUAGUUUUAAACUAGUCACGGUGAUACCUAUUCUGUGCUAGUGGAAUCAUUUACUCUUACCUUUUAAACUAUCUCCUCUGUCUGAUACCUGAAACCAG` is reported as 0.851 ratio.
`UUUUAAAGUCAUUUUUCACAUUUCCUGUAAAUAGUGGAUAAUCAUUUUUAUUUUCUUUUUAAGUGCUGUUUUAACAUGUGGAUAGAUCAUAAAUGUACUUGCUGAAUUCAUUCUUUUUUU` gave a bound/input enrichment of 0.374 ratio.
The bound/input enrichment of `AAAUUAUAGCAAAAGAGCCAAGCAGUAGUAUUGUGGGGGUUUUUGUAAAUGUAAAAUACUUAGGUUCAGACUUUGUUUCCUUCAAUUUUAAAAAUAAAAGAUACCUCAGUGCUAUAAUGU` is reported as 0.341 ratio.
`UAUCUUUAGGAUGAAGCUCUUACAUCAGGUGUCACGAGUCUGGAGAACGGAUGGGUUGACCAGCUGUAUCUAUAAAUUACUCUCUGUGGAUUAUAAUCCUUUGUAUACCAACAUCACAGU` gave a bound/input enrichment of 0.306 ratio.
With `CUGUGAACAACUCAGGGCAGUAUCCCCCAUACUCUCCGUACAGCAACCUCAAUCAGGGAUUAGUAAACAAUACAGGGAUGAGUCCCAACAUGAGCCUUACCAGCAGCAGUGCCCCUAUGA` the bound/input enrichment was 0.582 ratio.
The bound/input enrichment of `UGGAGCAACUCAAGGAUUGAGGACUGGUUUUACAAAUAUACCAAGUAGAUAUGGAACUAAUAGAAUUGGACAACCAAGACCAUGAUGGACUCUAACUUAUUUUUAUGAGAAAUAUUGACU` is reported as 0.395 ratio.

Repeated from above (sample 6):
The bound/input enrichment of `UGUACUUGGAAAAAAAUCAUCUUUAGUUUUAAACUAGUCACGGUGAUACCUAUUCUGUGCUAGUGGAAUCAUUUACUCUUACCUUUUAAACUAUCUCCUCUGUCUGAUACCUGAAACCAG` is reported as 0.851 ratio.
The bound/input enrichment of `AAAUUAUAGCAAAAGAGCCAAGCAGUAGUAUUGUGGGGGUUUUUGUAAAUGUAAAAUACUUAGGUUCAGACUUUGUUUCCUUCAAUUUUAAAAAUAAAAGAUACCUCAGUGCUAUAAUGU` is reported as 0.341 ratio.
With `CUGUGAACAACUCAGGGCAGUAUCCCCCAUACUCUCCGUACAGCAACCUCAAUCAGGGAUUAGUAAACAAUACAGGGAUGAGUCCCAACAUGAGCCUUACCAGCAGCAGUGCCCCUAUGA` the bound/input enrichment was 0.582 ratio.
`AAAUUUUUAAAGUUUUUUAAUUUAUUUUUUUCUGUUGGGGGUAAAGUUCGCGCUACCAAAUAGUGAUCGUAACAAAUUGAUCUGUUAUGGAUGUUGCUAUAGUGACAUGCAAUUAUAUCU` gave a bound/input enrichment of 0.999 ratio.
The bound/input enrichment of `UGGAGCAACUCAAGGAUUGAGGACUGGUUUUACAAAUAUACCAAGUAGAUAUGGAACUAAUAGAAUUGGACAACCAAGACCAUGAUGGACUCUAACUUAUUUUUAUGAGAAAUAUUGACU` is reported as 0.395 ratio.
`UAUCUUUAGGAUGAAGCUCUUACAUCAGGUGUCACGAGUCUGGAGAACGGAUGGGUUGACCAGCUGUAUCUAUAAAUUACUCUCUGUGGAUUAUAAUCCUUUGUAUACCAACAUCACAGU` gave a bound/input enrichment of 0.306 ratio.
`UUUUAAAGUCAUUUUUCACAUUUCCUGUAAAUAGUGGAUAAUCAUUUUUAUUUUCUUUUUAAGUGCUGUUUUAACAUGUGGAUAGAUCAUAAAUGUACUUGCUGAAUUCAUUCUUUUUUU` gave a bound/input enrichment of 0.374 ratio.
